Experimental data gathered from unrelated publications.
Protocols differ between the studies behind these lines. Several values in a cell are separate wells, animals, samples, runs or records. ± marks the error that the study gave.
CNR2: Cannabinoid receptor 2 (CNR2, Homo sapiens, UniProt P34972)
Sequence of UniProt P34972 (whole entry, looked up): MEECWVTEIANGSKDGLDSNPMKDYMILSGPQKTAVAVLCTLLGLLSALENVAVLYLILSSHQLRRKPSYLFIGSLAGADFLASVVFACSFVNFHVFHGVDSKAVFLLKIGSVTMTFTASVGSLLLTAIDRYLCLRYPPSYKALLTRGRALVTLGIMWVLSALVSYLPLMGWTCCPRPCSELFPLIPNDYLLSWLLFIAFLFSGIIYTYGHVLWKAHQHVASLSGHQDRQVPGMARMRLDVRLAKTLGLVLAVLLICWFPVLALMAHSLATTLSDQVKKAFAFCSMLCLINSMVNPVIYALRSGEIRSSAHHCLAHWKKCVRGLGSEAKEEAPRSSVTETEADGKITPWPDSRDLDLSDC
Genome polyprotein NS2B-NS3 protease: Genome polyprotein, NS2B-NS3 protease (dengue virus type 2, UniProt P29990)
Sequence of UniProt Q9SZU7 (whole entry, unmodified, looked up): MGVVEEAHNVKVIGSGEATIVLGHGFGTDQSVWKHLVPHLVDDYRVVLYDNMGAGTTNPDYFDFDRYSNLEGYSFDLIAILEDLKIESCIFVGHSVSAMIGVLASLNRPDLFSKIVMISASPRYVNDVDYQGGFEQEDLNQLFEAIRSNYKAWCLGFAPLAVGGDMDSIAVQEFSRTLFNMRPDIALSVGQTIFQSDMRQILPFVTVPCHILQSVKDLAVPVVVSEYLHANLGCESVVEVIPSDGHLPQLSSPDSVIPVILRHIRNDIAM
Sequence of UniProt P54762 (whole entry, looked up): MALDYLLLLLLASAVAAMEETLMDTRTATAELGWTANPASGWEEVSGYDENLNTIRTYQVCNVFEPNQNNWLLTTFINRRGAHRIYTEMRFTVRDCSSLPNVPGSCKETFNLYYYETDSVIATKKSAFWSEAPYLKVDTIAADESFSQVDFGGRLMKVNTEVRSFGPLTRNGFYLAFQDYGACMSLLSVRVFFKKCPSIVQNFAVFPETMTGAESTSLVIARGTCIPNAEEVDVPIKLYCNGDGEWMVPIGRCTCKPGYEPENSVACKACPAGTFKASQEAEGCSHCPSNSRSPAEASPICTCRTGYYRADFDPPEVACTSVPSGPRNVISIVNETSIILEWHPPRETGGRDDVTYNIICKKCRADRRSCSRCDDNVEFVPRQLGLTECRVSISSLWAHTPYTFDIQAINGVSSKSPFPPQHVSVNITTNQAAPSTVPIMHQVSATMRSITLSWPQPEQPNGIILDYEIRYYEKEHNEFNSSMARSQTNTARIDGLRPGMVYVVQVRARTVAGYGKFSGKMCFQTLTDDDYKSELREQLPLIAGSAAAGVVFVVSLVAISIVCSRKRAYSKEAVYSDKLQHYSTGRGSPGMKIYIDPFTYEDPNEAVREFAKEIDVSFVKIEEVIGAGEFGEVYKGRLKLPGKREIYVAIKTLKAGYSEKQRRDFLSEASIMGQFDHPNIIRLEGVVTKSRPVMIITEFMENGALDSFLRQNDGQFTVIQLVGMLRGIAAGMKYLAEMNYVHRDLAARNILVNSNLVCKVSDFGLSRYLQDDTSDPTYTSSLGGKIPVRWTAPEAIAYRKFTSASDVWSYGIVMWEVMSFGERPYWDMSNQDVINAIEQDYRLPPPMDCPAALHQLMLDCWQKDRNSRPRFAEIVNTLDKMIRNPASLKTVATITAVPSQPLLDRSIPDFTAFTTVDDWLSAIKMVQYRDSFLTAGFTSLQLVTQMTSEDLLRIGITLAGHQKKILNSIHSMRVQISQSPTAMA
Sequence of UniProt P46089 (whole entry, unmodified, looked up): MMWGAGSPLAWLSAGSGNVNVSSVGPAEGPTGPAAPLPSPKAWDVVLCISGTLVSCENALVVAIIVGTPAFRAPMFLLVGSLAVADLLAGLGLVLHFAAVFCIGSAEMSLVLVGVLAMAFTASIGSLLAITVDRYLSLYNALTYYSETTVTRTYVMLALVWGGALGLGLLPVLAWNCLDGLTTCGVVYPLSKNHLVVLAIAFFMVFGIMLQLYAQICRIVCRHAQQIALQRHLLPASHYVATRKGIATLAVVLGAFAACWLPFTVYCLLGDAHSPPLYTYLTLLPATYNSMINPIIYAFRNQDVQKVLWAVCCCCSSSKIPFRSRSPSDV
Sequence of UniProt P35821 (whole entry, looked up): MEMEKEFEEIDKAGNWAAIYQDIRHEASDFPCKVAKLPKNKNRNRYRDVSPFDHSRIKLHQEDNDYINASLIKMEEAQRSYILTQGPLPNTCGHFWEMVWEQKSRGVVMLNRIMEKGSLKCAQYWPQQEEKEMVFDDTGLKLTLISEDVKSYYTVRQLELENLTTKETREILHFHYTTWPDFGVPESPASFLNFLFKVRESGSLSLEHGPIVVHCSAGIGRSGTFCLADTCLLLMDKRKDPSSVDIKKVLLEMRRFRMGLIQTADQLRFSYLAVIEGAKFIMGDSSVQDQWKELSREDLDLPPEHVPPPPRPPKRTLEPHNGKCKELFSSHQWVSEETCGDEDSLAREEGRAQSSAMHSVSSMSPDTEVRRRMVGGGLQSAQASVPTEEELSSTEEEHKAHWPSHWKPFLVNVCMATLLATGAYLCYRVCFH

SMILES | target | test | system | conditions | endpoint | result
CCOC(=O)[C@](CC)(CCCSCCOCCOCCNC(=O)OC(C)(C)C)NC(=O)c1ccc(C2CC2)c(Cc2ccc(F)cc2)n1 | CNR2 | ligand displacement, radioligand |  | cell membranes | Ki | 28 nM
NC(=O)c1cccc(NC(=O)c2cc(-c3ccc4c(c3)OCCO4)n(-c3ccccc3)n2)c1 | Genome polyprotein NS2B-NS3 protease | reporter gene | HeLa |  | EC50 | 12 µM
O=C(N1CCc2ccccc21)n1ccnc1 | KAI2 (Arabidopsis thaliana, UniProt Q9SZU7) | binding, ITC |  |  | Kd | 111 µM
CCOC(=O)[C@@](CC)(CCCSCCOCCOCCN)NC(=O)c1ccc(C2CC2)c(Cc2ccc(F)cc2)n1 | CNR2 | ligand displacement, radioligand |  | cell membranes | Ki | 4.6 nM
NC(=O)c1cccc(NC(=O)c2cc(-c3ccc(Cl)cc3)n(-c3ccccc3)n2)c1 | Genome polyprotein NS2B-NS3 protease | reporter gene | HeLa |  | EC50 | 21 µM
C=CC(=O)N1CC2(CCN(c3nc(OC4CCN(CCCOC)CC4)nc4c(OCC(F)(F)F)c(-c5c(C)ccc6[nH]ncc56)c(C5CC5)cc34)CC2)C1 | GTPase KRas, GDP-bound (KRAS, Homo sapiens, UniProt P01116, A146T) | binding, surface plasmon resonance |  |  | Kd | 1.1 ± 0.12 µM
NC(=O)c1cccc(NC(=O)c2cc(-c3ccc(Br)cc3)n(-c3ccccc3)n2)c1 | Genome polyprotein NS2B-NS3 protease | reporter gene | HeLa |  | EC50 | 13 µM
CC(C)(C)n1cc(CN(Cc2cn(CCOCCOCCOCCOCCOCCO)nn2)Cc2cn(C(C)(C)C)nn2)nn1 | Cu(I) | binding, bicinchoninic acid competition |  | 8000 µM, together with: bicinchoninic acid 40 µM | Kd | 0.000276 µM
CN1CCN(c2ccc(NC(=O)c3cc(-c4ccccc4)n(-c4ccccc4)n3)cc2)CC1 | Genome polyprotein NS2B-NS3 protease | reporter gene | HeLa |  | EC50 | > 38 µM
CCOC(=O)C(CC)(CCCOC)NC(=O)c1ccc(C2CC2)c(Cc2ccc(F)cc2)n1 (stereo not drawn) | CNR2 | ligand displacement, radioligand |  | cell membranes | Ki | 1.5 nM
NC(=O)c1cccc(NC(=O)c2cc(-c3ccccc3)n(-c3ccc(Br)cc3)n2)c1 | Genome polyprotein NS2B-NS3 protease | reporter gene | HeLa |  | EC50 | 12 µM
Cc1cccc2c1N(C(=O)n1ccnn1)CC2 | KAI2 (Arabidopsis thaliana, UniProt Q9SZU7, F157Y) | ITC |  | F157Y mutant | Kd | 520 µM and 320 µM and 495 µM
O=C(O)C(Cc1c[nH]cn1)N1C(=O)c2ccc3c4ccc5c6c(ccc(c7ccc(c2c37)C1=O)c64)C(=O)N(C(Cc1c[nH]cn1)C(=O)O)C5=O (stereo not drawn) | hTERT promoter G-quadruplex DNA | binding, thiazole orange displacement |  | pH 7 | DC50 | > 2500 nM
Cn1c(=O)n(C2CCC(=O)NC2=O)c2ccc(C3CCN(CC(=O)Nc4cccc(CS(=O)(=O)N5CC[C@H](Nc6cccc(-c7sc(C(=O)O)c(OCC(=O)O)c7Cl)c6)CC5(C)C)c4)CC3)cc21 (stereo partly drawn) | Tyrosine-protein phosphatase non-receptor type 1 (Mus musculus, UniProt P35821) | degrader, Western blot | B16-F10 | 24 h | DC50 | 11 nM
NC(=O)c1cccc(NC(=O)c2cc(-c3ccccc3)nn2-c2ccccc2)c1 | Genome polyprotein NS2B-NS3 protease | reporter gene | HeLa |  | EC50 | 14 µM
O=C(O)C(Cc1c[nH]cn1)N1C(=O)c2ccc3c4ccc5c6c(ccc(c7ccc(c2c37)C1=O)c64)C(=O)N(CCN1CCCCC1)C5=O (stereo not drawn) | hTERT promoter G-quadruplex DNA | binding, thiazole orange displacement |  | pH 7 | DC50 | 360 ± 140 nM
Cc1nn(-c2cccc(N)c2)c(=O)c2cnc(Nc3ccc(N4CCNCC4)cc3)nc12 | Ephrin type-B receptor 1 (EPHB1, Homo sapiens, UniProt P54762) | enzyme activity, inhibitor |  |  | IC50 | 2520 nM
CC(C)Oc1cc(Cl)ccc1CNc1cc(-c2ccccc2)nc2ncnn12 | G-protein coupled receptor 3 (GPR3, Homo sapiens, UniProt P46089, Q215A/Y135A) | cAMP level, cAMP GloSensor |  |  | EC50 | 0.793 µM
CCOC(=O)C(CC)(CCCSCCOCCOCCN=[N+]=[N-])NC(=O)c1ccc(C2CC2)c(Cc2ccc(F)cc2)n1 (stereo not drawn) | CNR2 | cAMP, agonist |  |  | EC50 | 0.0019 µM
O=C(O)c1cc(-c2ccccc2)n(-c2ccccc2)n1 | Genome polyprotein NS2B-NS3 protease | reporter gene | HeLa |  | EC50 | 37 µM
CN(C)c1ccc(/C=C/c2cc(/C=C3\Sc4ccccc4N3CCCN3CCCC3)c3ccccc3[n+]2C)cc1 | Pu27 DNA | isothermal titration calorimetry |  | pH 7.4, 25 °C, 2% DMSO | Kd | 14.4 µM
NCc1ccc(NC(=O)c2cc(-c3ccccc3)n(-c3ccccc3)n2)cc1 | Genome polyprotein NS2B-NS3 protease | reporter gene | HeLa |  | EC50 | 5.8 µM
CCOC(=O)C(CC)(CCCSCCOCCN)NC(=O)c1ccc(C2CC2)c(Cc2ccc(F)cc2)n1 (stereo not drawn) | CNR2 | ligand displacement, radioligand |  | cell membranes | Ki | 60 nM
O=C1c2ccc3c4ccc5c6c(ccc(c7ccc(c2c37)C(=O)N1CCN1CCCCC1)c64)C(=O)N(CCN1CCCCC1)C5=O | hTERT promoter G-quadruplex DNA | binding, thiazole orange displacement |  | pH 6 | DC50 | 420 ± 280 nM

Repeated from above:
SMILES | target | test | system | conditions | endpoint | result
NC(=O)c1cccc(NC(=O)c2cc(-c3ccc(Br)cc3)n(-c3ccccc3)n2)c1 | Genome polyprotein NS2B-NS3 protease | reporter gene | HeLa |  | EC50 | 13 µM
CC(C)(C)n1cc(CN(Cc2cn(CCOCCOCCOCCOCCOCCO)nn2)Cc2cn(C(C)(C)C)nn2)nn1 | Cu(I) | binding, bicinchoninic acid competition |  | 8000 µM, together with: bicinchoninic acid 40 µM | Kd | 0.000276 µM
